Measurements pooled from the literature.
Each line is one published result; not all experiments were run side by side.
MTNR1A: Melatonin receptor type 1A (MTNR1A, Homo sapiens, UniProt P48039)
Chain of UniProt P48039 (whole entry, looked up): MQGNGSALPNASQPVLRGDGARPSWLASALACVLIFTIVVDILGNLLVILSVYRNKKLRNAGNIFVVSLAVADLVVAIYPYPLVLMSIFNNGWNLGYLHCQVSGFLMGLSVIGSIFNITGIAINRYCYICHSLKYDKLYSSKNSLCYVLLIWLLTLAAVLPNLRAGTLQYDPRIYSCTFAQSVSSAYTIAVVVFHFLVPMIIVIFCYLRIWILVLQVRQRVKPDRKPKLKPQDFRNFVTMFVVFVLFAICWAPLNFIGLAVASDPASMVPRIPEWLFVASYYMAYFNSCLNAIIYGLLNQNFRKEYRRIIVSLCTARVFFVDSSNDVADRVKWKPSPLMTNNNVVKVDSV
HTR1F: 5-hydroxytryptamine receptor 1F (HTR1F, Homo sapiens, UniProt P30939)
Chain of UniProt P30939 (whole entry, looked up): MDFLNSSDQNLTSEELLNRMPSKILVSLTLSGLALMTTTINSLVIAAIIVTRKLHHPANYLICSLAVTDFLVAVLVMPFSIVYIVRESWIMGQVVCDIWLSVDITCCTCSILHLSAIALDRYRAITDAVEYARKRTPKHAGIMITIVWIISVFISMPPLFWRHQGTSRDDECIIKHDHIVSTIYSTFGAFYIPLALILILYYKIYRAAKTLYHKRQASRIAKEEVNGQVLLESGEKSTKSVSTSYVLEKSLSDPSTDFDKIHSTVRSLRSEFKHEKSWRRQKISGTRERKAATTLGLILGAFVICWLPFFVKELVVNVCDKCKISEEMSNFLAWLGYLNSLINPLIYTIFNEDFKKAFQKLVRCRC
MTNR1B: Melatonin receptor type 1B (MTNR1B, Homo sapiens, UniProt P49286)
Chain of UniProt P49286 (whole entry, looked up): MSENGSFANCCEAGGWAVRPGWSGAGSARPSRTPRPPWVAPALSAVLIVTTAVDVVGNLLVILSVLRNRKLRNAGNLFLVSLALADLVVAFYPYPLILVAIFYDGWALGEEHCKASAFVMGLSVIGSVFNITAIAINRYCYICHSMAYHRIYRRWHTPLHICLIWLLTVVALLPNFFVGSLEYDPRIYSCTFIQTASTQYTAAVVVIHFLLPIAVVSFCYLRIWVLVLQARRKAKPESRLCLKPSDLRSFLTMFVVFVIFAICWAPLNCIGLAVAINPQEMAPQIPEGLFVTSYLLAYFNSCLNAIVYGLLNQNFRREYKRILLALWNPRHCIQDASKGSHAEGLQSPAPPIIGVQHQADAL
Chain of UniProt Q9P289 (whole entry, looked up): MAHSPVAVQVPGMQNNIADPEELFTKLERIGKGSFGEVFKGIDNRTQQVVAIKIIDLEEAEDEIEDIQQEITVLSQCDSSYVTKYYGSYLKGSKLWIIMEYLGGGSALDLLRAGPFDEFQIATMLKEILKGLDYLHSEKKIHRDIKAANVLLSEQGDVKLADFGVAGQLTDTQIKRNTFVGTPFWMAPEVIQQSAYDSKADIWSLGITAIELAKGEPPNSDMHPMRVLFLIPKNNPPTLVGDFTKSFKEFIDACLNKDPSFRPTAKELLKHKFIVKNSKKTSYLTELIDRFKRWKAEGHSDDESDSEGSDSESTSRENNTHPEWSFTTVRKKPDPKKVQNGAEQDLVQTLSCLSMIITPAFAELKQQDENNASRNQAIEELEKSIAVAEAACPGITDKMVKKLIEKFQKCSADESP
Chain of UniProt Q9UKP6 (whole entry, looked up): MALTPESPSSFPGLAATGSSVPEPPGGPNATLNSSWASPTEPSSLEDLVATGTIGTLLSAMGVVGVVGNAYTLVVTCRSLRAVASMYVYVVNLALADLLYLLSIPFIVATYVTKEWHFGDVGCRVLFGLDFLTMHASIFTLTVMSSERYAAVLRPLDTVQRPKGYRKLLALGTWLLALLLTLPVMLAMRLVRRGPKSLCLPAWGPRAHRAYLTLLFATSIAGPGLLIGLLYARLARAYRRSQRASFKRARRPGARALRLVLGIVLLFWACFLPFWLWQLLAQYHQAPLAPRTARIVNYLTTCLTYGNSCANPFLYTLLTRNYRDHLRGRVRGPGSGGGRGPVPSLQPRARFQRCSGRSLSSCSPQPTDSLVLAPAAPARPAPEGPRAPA
Chain of UniProt Q9UK32 (whole entry, looked up): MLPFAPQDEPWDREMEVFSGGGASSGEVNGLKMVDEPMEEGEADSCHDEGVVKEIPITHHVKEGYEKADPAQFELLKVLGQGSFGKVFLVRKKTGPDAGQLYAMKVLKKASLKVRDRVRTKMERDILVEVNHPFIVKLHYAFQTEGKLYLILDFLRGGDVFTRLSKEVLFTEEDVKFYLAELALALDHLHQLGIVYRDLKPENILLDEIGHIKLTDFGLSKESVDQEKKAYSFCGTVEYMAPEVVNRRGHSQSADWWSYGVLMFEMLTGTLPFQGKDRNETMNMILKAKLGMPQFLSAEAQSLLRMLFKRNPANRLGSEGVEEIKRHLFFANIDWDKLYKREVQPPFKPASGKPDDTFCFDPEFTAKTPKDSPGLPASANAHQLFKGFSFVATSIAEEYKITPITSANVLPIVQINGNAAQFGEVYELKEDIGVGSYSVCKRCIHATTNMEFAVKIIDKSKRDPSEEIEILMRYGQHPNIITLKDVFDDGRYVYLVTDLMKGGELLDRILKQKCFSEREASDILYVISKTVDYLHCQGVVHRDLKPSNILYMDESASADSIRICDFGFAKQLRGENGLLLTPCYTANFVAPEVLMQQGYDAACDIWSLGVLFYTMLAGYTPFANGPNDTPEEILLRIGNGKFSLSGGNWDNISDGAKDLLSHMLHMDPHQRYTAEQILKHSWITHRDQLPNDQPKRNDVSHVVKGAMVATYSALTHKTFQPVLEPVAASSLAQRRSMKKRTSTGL
Chain of UniProt Q13705 (whole entry, looked up): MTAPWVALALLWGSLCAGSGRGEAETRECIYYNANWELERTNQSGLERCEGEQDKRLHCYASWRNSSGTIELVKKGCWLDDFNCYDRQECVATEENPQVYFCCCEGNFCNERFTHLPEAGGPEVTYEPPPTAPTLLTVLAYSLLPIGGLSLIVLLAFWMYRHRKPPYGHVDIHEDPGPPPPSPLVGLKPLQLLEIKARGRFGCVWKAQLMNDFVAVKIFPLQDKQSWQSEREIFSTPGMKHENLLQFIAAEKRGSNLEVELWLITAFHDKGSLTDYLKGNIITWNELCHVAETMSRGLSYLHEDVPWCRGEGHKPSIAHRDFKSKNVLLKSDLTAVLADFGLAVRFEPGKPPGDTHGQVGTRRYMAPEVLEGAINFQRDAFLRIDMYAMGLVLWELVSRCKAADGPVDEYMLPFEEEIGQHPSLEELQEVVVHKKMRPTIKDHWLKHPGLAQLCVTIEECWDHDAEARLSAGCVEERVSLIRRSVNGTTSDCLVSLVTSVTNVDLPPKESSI
Chain of UniProt P48730 (whole entry, looked up): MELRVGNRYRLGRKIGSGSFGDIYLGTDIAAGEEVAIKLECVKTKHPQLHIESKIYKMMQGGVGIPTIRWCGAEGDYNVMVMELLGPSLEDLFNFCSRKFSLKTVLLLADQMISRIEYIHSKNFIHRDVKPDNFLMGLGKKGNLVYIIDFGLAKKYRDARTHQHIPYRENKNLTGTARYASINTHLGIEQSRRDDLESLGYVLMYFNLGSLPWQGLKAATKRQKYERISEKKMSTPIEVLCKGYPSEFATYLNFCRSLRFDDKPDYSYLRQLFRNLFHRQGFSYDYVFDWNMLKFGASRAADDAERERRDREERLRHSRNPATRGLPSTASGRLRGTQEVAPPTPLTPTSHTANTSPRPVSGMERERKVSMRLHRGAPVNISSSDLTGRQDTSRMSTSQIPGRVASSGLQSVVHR
Chain of UniProt Q9NQS5 (whole entry, looked up): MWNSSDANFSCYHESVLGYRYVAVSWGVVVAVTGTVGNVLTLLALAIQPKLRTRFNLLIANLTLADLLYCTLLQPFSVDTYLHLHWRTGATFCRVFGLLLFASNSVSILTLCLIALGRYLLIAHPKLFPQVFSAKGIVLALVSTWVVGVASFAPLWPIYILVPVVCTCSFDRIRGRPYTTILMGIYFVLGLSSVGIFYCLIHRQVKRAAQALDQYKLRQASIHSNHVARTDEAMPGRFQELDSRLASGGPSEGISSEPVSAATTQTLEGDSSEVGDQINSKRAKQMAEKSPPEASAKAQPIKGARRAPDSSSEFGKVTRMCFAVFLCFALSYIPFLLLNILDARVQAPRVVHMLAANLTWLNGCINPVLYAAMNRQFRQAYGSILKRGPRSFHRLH
Chain of UniProt Q16581 (whole entry, looked up): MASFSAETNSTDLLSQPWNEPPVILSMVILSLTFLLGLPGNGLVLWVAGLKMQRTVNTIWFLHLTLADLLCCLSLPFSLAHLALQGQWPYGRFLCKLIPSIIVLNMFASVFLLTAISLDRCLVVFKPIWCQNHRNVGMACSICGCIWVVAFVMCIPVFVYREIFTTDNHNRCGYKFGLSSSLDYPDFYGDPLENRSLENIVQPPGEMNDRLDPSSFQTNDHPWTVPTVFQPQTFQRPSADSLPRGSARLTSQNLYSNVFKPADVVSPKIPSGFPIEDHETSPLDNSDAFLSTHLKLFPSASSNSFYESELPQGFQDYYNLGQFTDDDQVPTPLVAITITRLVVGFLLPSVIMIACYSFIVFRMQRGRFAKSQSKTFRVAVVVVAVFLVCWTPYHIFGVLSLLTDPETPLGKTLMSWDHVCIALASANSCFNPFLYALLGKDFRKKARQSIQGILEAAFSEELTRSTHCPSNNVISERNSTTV
Chain of UniProt P30542 (whole entry, looked up): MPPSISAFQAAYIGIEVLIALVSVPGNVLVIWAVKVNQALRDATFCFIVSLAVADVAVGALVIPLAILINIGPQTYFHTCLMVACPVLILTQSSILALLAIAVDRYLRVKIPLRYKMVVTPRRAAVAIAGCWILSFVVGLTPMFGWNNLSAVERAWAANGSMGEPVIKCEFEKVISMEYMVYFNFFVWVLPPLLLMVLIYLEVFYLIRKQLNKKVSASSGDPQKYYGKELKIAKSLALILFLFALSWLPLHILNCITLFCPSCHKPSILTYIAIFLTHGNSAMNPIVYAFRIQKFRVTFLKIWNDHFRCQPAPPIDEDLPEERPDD

Cc1cc(NC(=O)NCCN2CCC(O)(Cc3ccccc3)CC2)c2ccccc2n1
EC50 (Urotensin-2 receptor (UTS2R, Homo sapiens, UniProt Q9UKP6); G protein activation, agonist, BRET): 95.5 nM

COc1ccc2c(c1)N(Cc1cc(=O)c(O)co1)CCO2
EC50 (MTNR1A; cAMP, agonist, luciferase): 1.2 nM

C=CC(=O)N1CCC(COCC(=O)N2CCN(c3nc(-c4cnc(N)nc4C(F)F)nc(N4CCOC[C@@H]4C)n3)CC2)CC1
remaining binding (SRSF protein kinase 3 (SRPK3, Homo sapiens, UniProt Q9UPE1); binding, competition with immobilised ligand; 1 µM): 95%

CNc1ncc2c(/C=C/C(=O)N3CCC(OC)CC3)nn(Cc3cccc(C(F)(F)F)c3)c2n1
remaining activity (Serine/threonine-protein kinase 26 (STK26, Homo sapiens, UniProt Q9P289); enzyme activity, inhibitor, radiometric; 1 µM): 90%

CN(C)CCC=C1c2ccccc2C=Cc2ccccc21
EC50 (HTR1F; G protein activation, agonist, BRET): 1880 nM

CC(C)C[C@H](NC(=O)[C@@H](N)[C@@H](C)O)C(=O)N[C@@H](CCC(N)=O)C(=O)N1CCC[C@H]1C(=O)N1CCC[C@H]1C(=O)N[C@@H](C)C(=O)N[C@@H](CO)C(=O)N[C@@H](CO)C(=O)N[C@@H](CCCNC(=N)N)C(=O)N[C@H](CCCNC(=N)N)C(=O)N[C@@H](CCCNC(=N)N)C(=O)N[C@@H](Cc1c[nH]cn1)C(=O)N[C@@H](Cc1ccccc1)C(=O)N[C@@H](Cc1c[nH]cn1)C(=O)N[C@@H](Cc1c[nH]cn1)C(=O)N[C@@H](C)C(=O)N[C@@H](CC(C)C)C(=O)N1CCC[C@H]1C(=O)N1CCC[C@H]1C(=O)N[C@H](C)C(=O)N[C@@H](CCCNC(=N)N)C(=O)O
EC50 (C3a anaphylatoxin chemotactic receptor (C3AR1, Homo sapiens, UniProt Q16581); β-arrestin recruitment, agonist): 87 nM

Cc1cc([C@@H](C)Nc2ccccc2C(=O)O)c2nc(N3CCC(F)(F)CC3)c(C#N)c(=O)n2c1
remaining binding (NUAK family SNF1-like kinase 2 (NUAK2, Homo sapiens, UniProt Q9H093); binding, competition with immobilised ligand; 1 µM): 82%

O=C(NCCc1cccc2ccccc12)C1CCC1
EC50 (MTNR1B; GTPγS binding, agonist, radiometric; cell membranes): 45.7 nM

COc1cccc(-c2n[nH]c(SCc3ccccn3)n2)c1OC
concentration (female Sprague-Dawley rat, plasma; oral, 30 mg/kg, 1 h, single dose): 22400 ng/mL

CCCCCCCCNc1[nH]c(=O)[nH]c(=O)c1N=O
EC50 (G-protein coupled receptor 84 (GPR84, Homo sapiens, UniProt Q9NQS5); cAMP, agonist): 603 nM

C1=C/COCc2cc(ccc2OCCN2CCCC2)Nc2nccc(n2)-c2cccc(c2)COC/1
remaining signal (Serine/threonine-protein kinase LATS2 (LATS2, Homo sapiens, UniProt Q9NRM7); cell-free assay; 0.1 µM): 88%

Cc1cc(C(C)(C)C)c(O)c(C)c1CC1=NCCN1
EC50 (HTR1F; G protein activation, agonist, BRET): 11.3 nM

CCOC(=O)[C@@]12C[C@@H]1[C@@H](n1cnc3c(NC4CC4)nc(C#Cc4ccc(Cl)s4)nc31)[C@H](O)[C@@H]2O
EC50 (Sodium-dependent dopamine transporter (SLC6A3, Homo sapiens, UniProt Q01959); ligand displacement, radioligand): 110 nM

CN(C)c1ncnc2c1ncn2[C@@H]1O[C@H](CO)[C@@H](O)[C@H]1O
EC50 (Adenosine receptor A1 (ADORA1, Homo sapiens, UniProt P30542); G protein activation, agonist): 1800 nM

COc1ccc2ncn(CCNC(C)=O)c2c1
EC50 (MTNR1B; β-arrestin recruitment, agonist): 871 nM

CCC1=NN(/C(=N/c2nnc(CC)s2)Nc2ccc(C)c(C)c2)C(c2cc(F)c(F)c(F)c2)S1 (stereo not drawn)
EC50 (Vasopressin V2 receptor (AVPR2, Homo sapiens, UniProt P30518); cAMP, positive allosteric modulator): > 50000 nM

C=CCN1C[C@H](C(=O)N(CCCN(C)C)C(=O)NCC)C[C@@H]2c3cccc4[nH]cc(c34)C[C@H]21
EC50 (HTR1F; G protein activation, agonist, BRET): 387 nM

COc1cc(C)nc(CN2CCOc3ccc(OC)cc32)c1
EC50 (MTNR1A; cAMP, agonist, luciferase): 159 nM

CCOc1c(Br)cc(C(=O)Nc2ccc(C(=O)O)cc2)cc1C(=O)c1ccc(C)cc1
EC50 (Retinoic acid receptor alpha (RARA, Homo sapiens, UniProt P10276); reporter gene, antagonist, luciferase): 2.8 nM

COc1cc(-c2cncc3c2CN(C)Cc2cc(N4CCNCC4)ccc2-3)cc(OC)c1OC
remaining activity (Aurora kinase C (AURKC, Homo sapiens, UniProt Q9UQB9); enzyme activity, inhibitor; 1 µM): 92%

COC(=O)c1cccc(N(C)CC2CCS(=O)(=O)C2)n1 (stereo not drawn)
EC50 (MTNR1A; cAMP, agonist, luciferase): 30.6 nM

Nc1ncnc2occ(-c3ccc(NC(=O)Nc4cc(C(F)(F)F)ccc4F)cc3)c12
remaining signal (Activin receptor type-2B (ACVR2B, Homo sapiens, UniProt Q13705); cell-free assay; 20 µM): 18%

COC(=O)c1cc(Cn2cc(C)sc2=O)c(C)s1
EC50 (MTNR1A; cAMP, agonist, luciferase): 495 nM

O=c1nc(N2CCN(CC3CCCCC3)CC2)sc2c([N+](=O)[O-])cc(C(F)(F)F)cc12
concentration (CD-1 mouse, lung; intravenous, 10 mg/kg, 2 h): 1410 ng/mL

COc1cc(I)c2[nH]cc(CCNC(C)=O)c2c1
EC50 (MTNR1A; β-arrestin recruitment, agonist): 60.3 nM

CCc1ccc(C2C(C#N)C(=N)SC(=N)C2C#N)cc1 (stereo not drawn)
Kd (Casein kinase I isoform delta (CSNK1D, Homo sapiens, UniProt P48730); binding, SPR): > 50000 nM

CC(=O)c1ccc(CSc2nnc(C3CC3)[nH]2)cc1
EC50 (MTNR1A; cAMP, agonist, luciferase): 51.4 nM

CC(C)=CCNc1ncnc2c1ncn2[C@@H]1O[C@H](CO)[C@@H](O)[C@H]1O
EC50 (Adenosine receptor A3 (ADORA3, Homo sapiens, UniProt P0DMS8, M174A); G protein activation, agonist): 36.1 nM

CCCCC(=O)Nc1ccc(-c2ccc3ncn(CCC)c(=O)c3c2)cn1
remaining binding (Ribosomal protein S6 kinase alpha-6, N-terminal kinase domain (RPS6KA6, Homo sapiens, UniProt Q9UK32); binding, competition with immobilised ligand; 0.5 µM): 100%

COC(=O)c1cc(Cn2nc(Cl)c(OC)cc2=O)c(C)s1
EC50 (MTNR1A; cAMP, agonist, luciferase): 25.6 nM

Excerpt of the above:
CCOc1c(Br)cc(C(=O)Nc2ccc(C(=O)O)cc2)cc1C(=O)c1ccc(C)cc1
EC50 (Retinoic acid receptor alpha (RARA, Homo sapiens, UniProt P10276); reporter gene, antagonist, luciferase): 2.8 nM

COc1cc(-c2cncc3c2CN(C)Cc2cc(N4CCNCC4)ccc2-3)cc(OC)c1OC
remaining activity (Aurora kinase C (AURKC, Homo sapiens, UniProt Q9UQB9); enzyme activity, inhibitor; 1 µM): 92%

COC(=O)c1cccc(N(C)CC2CCS(=O)(=O)C2)n1 (stereo not drawn)
EC50 (MTNR1A; cAMP, agonist, luciferase): 30.6 nM
